Results of several laboratories.
A part holds a random share of what one study measured.

Block 1
Target: RNA binding protein fox-1 homolog 2, RRM domain, GST-SBP tag (RBFOX2, Homo sapiens, UniProt O43251-10, residues 100-194)
Method: RNA Bind-n-Seq
Molecule type: RNA
Sample: in vitro
Concentration: 365 nM
Notes: natural RNA segment, single round, ends assumed
Baseline: no-protein control
Reading: higher = stronger binding
Target sequence (chain): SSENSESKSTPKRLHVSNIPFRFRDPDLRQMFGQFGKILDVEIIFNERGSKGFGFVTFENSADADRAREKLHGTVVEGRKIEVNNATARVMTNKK
Sequence	RBNS enrichment (R)
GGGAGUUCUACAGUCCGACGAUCGUAGAGCUGAGCCUCUCCACUUCAGGGUGUGGCAUCAUGGCUCAGAUGUCAUUUUGAGCUAAAACCCAGUUAGAUGCAGUAAAAAACCACUUUGAGAGAUGGCUUGUGUUUGGAAUUCUCGGGUGCCAA	0.48
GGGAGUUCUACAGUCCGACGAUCCGUGAUAUGGGGUAAGGAGGUGCUUUUUUAAAAUCGUUCAUAGACUUCUGUAAAAUGCAAGAUAAAUUAAAGUUAUUAUAACAGUGAUUCUUUCAAUUUGGUUUGUCCUUUGGAAUUCUCGGGUGCCAA	0.774
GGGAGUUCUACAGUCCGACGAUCAGAGGAGGCCUGGGGGCCUGGACGAAGAGGCCUAGGACCUGAAGAGACUCCAGCGAGUCUCGGGAAGCCCAGGGGACCUGUCACCAUCUGGGCACUUCCCAGGCUCAAUGUGGAAUUCUCGGGUGCCAA	0.526
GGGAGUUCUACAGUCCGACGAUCAGUCCUGUGAGGCCCCUGAAGCUCUGUGAGGCCCCUGAAGCUCUGUGAACCCCCUGCAGCCCUGUGAGGCCCCCCGAAGCCCUGUGAGGCCCCCCGAAGCCCUGUGAACCUGGAAUUCUCGGGUGCCAA	0.453
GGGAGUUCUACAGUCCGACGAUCUGGUCCCAUGGCUGAAGCUGGAGCAGCGGAUUGCUCUGGAGCAGCCAAGGCCGCCAGCGUGUGGAGCAGAGCUCUCCCCUCCUGCUGGGCGUGUGUGACACUGAUGAGUUUGGAAUUCUCGGGUGCCAA	0.418
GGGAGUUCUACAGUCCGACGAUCGUAAUCUUCAAGUAUGUGCUAUUUUUUGUCCCUGUAUCUAAGUCAAAUCAGGAACUUUUUUCUAACAAUUUGCUUUUGAAACUUGAAGUCAAGGAAACAGUGUGGUGCAAUGGAAUUCUCGGGUGCCAA	0.909
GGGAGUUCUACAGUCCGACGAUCCGCUGAACACCAUCCCGCCAUUAGCGCAUCGGAACCCCACACAGUUGCAACUCCCAACCCCGAAUCUUUGCAGCCGUUCGGCCCUGAAAGAUGCCCUAUCCAUGAGAUGCUGGAAUUCUCGGGUGCCAA	0.696
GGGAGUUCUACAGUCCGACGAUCACACAGGUGUCCAUCUCCACUCUGUCCCCGGUCUCUGUCCCAGCUCAGGCUGCGUUCUCUAACUCAUACUGUGAAGACAACCGUGUUUUUGAUUAAAAAAAAUAUAUCUAUGGAAUUCUCGGGUGCCAA	0.492
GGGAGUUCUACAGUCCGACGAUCGGACUCAGAAAUGUGAGGGGGGCGGGGGCCUGGCGGGAGGCCUGGCCCCUUCCUCGUCCUUUCCUUUUGCCUUUGAGACCAAACCAAGUGCUUCCAAAUUCUUUUGGUGCUGGAAUUCUCGGGUGCCAA	0.274
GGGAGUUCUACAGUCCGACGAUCGGCCAUAUAACUACACAAAACUGACCAAUCUGGGUUGCCAAAGCAGCCAGGCUUAUGCUGAAACCGGGGAAGUCUGACAUAUGCAGGAAACUCUUUUGAAAUAACUUUGGUGGAAUUCUCGGGUGCCAA	0.286
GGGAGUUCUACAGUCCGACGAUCAUGAGCUCUGUUUCAACUAACGUGUCAUCUUGUAUUUCUUUCAAGGAAACCAAUUAGAUUCAAAUGUAGGAUAUUACAGGUUGGUUGAAAUCCCAUGUACAAAUAAAAUUUGGAAUUCUCGGGUGCCAA	0.263
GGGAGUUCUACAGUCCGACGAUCCUGAGAAUCAUGACAGACCCUCUGCCAGUCUCUAGUUUCUCUGGGUCAGGUUUCUGAGUACUGGCAUUGGAUUUUAAGCGGCAUGUGACCCUUUGUGUUUUAGUGACUCAUGGAAUUCUCGGGUGCCAA	1.98

Block 2
Target: RING finger protein unkempt homolog, zinc fingers 1-6, GST-SBP tag (UNK, Homo sapiens, UniProt Q9C0B0, residues 30-357)
UniProt Q9C0B0, sequence (30-357, looked up): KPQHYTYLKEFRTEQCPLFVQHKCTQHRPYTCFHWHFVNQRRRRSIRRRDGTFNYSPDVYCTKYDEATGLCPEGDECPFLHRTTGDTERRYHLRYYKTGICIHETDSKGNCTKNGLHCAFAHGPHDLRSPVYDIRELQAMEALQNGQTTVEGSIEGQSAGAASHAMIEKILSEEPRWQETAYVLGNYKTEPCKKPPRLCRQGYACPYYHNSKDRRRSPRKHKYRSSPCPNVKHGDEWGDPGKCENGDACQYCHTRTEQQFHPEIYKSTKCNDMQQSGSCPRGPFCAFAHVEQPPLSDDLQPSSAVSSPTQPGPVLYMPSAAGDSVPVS
Method: RNA Bind-n-Seq
Molecule type: RNA
Sample: in vitro
Concentration: not given
Notes: RNA with constant flanks, human and mouse sites, ends assumed
Baseline: input RNA pool
Reading: higher = stronger binding
Sequence	bound/input enrichment [ratio]
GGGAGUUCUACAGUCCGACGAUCACCCAAGUUGGAGUCAUUCGAUGCCCAGUUUGCAGUCAAGAGUGUGCUGAGAGACACAUCAUAGACAACUUUUUUGUGAAGGACACCACUGAAGUUCCUAGUAGUACAGUAGAAAAGUCUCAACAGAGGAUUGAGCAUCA	7.12
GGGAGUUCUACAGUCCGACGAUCAAACUAGGAUAUGCUGGAAAUACAGAACCACAGUUUAUCAUCCCUUCCUGUAUUGCUAUUAAGGAGUCAGCAAAAGUGGGUGAUCAAGCUCAAAGGAGGGUGAUGAAAGGUGUUGAUGACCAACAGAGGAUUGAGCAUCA	0.425
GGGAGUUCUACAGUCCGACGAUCUCACCUCAGAACUAUUCCCUAUCAAUCUAAUGCAAACUGUCAACUUAAUCUGACCUUUACUAUUACAGACCUUGUGUCAACUCUUUGGCUCUGCUUUCUAAGCACCUAAGGAAUAAGCUUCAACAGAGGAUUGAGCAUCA	0.142
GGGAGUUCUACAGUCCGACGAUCUUGGAAAAUGGAUAUACCUUAUUUGAUUAUGAUGUUGGACUGAAUGAUAUAAUUCAGCUGCUAGUUCGCCCAGACCCUGAUCAUCUUCCUGGCACAUCUACACAGAUUGAGGCUAAACCCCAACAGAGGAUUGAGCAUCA	0.234
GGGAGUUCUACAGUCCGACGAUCCCAUUUGAUCCUAGAGUUCUCUUCUCUGCUGGUCAUGAUGGAAAUGUGAUAGUGUGGGAUCUAGCAAGAGGAGUCAAAGUUCGAUCUUAUUUCAAUAUGAUUGAAGGACAAGGACAUGGUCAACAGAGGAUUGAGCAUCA	0.295
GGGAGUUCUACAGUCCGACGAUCACCUUGGACGCUGCAAGAGGAGCUGUCAAGCCCGGCAGGCUCUGAUUUGGCCCCCUCCGUUUUUCUCUGCUGCUCGUGGCUUCCCCGUGCCUCGGUGGAGUAUUUGCGUUCGGGGCUGGGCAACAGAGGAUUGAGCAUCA	0.168
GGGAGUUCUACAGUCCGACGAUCGUUCAAGAGGAUUUGCCUUUGUAUAUUUUGAAAAUGUAGAUGAUGCCAAGGAAGCUAAAGAACGUGCCAAUGGAAUGGAGCUUGAUGGGCGUAGGAUCAGAGUUGAUUUCUCUAUAACAACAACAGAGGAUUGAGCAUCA	0.453
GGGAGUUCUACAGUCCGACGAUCGACAUUCUAAUUGGUACAGACUGAAACCUUUAUAGGAGUUAUGCAGUUCAGAAGUGGACUUUAGGUAAGUCAUUUAUUUUAAGCUGUUGAUAUAGAGAUUUAUUUUCUGUAAAUUUUGACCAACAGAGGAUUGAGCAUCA	3.76
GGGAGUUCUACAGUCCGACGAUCACUUUAUGUUUUGUUGAAAAUAGUGGCCAAAGGGAGUCAUUAAGUGGAGACACAGGAAGUCUGUCAUGUGACAAUGCAUUGUUUGUAAUUGACACAACUCCUGGAAUGAGUGCUGAUAAACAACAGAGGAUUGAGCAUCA	0.211
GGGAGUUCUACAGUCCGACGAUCAUUCUCUAUGACAAGGAUCACUACAAGUUGGCUCUAGGUCAAAUAAAUAUUGCCAAAAACUUGGUGGACAAUGUUGCUAAAGAUUAUGUGCGUCUUAUGAAAUAUGGUGAUUCUCUGUACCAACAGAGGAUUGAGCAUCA	0.237
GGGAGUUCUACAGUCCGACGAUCACUUUUGGAUAAUAUCCACUGCAAUACUAAUUGAGAAACAUGAAUUAUUUCCAGGGGCACACAAUGCUAUUGAAAUUACUGAAAACAAAAUAUCUGACAUCUUAUUUACUUGUAGAAAUCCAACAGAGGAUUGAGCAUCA	0.271

Block 3
Target: Histone acetyltransferase KAT6A, winged helix 2, GST fusion (KAT6A, Homo sapiens, UniProt Q92794, residues 85-181)
Method: protein binding microarray
Molecule type: double-stranded DNA, one strand shown
Sample: in vitro
Concentration: not given
Notes: 8-mer, flanks averaged, mean of 2 arrays, mostly near background
Baseline: not given
Reading: higher = stronger binding
Residues (chain): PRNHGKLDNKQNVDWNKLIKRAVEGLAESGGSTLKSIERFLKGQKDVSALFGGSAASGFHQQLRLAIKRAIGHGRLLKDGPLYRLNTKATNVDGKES
Sequence	E-score
ACAAGCCG	0.126
AAACAGGT	-0.134
CCCCTGCA	-0.171
GGCCGCCC	0.0602
ACGGACGT	-0.275
CCCGTCGC	0.14
AACTGCAA	-0.0204
ATTCGGAA	0.0875
AATGATCT	0.0659
AAAGAAGA	-0.0322
CACAAGCA	0.0611
GTACTAAC	-0.118
GGCATCCC	0.0182
GAAAGCCA	0.037
AGATGGCG	0.00768
GAATTTCA	0.0899
CTAGCCAA	0.0315
CGGTAGTC	-0.138
AAGTAGAT	0.000105
CGAGTTAC	0.104
CAGAGCTC	0.0464

Block 4
Target: Sal-like protein 4, full length isoform A (SALL4, Homo sapiens, UniProt Q9UJQ4, residues 1-1053)
UniProt Q9UJQ4, sequence (whole entry, looked up): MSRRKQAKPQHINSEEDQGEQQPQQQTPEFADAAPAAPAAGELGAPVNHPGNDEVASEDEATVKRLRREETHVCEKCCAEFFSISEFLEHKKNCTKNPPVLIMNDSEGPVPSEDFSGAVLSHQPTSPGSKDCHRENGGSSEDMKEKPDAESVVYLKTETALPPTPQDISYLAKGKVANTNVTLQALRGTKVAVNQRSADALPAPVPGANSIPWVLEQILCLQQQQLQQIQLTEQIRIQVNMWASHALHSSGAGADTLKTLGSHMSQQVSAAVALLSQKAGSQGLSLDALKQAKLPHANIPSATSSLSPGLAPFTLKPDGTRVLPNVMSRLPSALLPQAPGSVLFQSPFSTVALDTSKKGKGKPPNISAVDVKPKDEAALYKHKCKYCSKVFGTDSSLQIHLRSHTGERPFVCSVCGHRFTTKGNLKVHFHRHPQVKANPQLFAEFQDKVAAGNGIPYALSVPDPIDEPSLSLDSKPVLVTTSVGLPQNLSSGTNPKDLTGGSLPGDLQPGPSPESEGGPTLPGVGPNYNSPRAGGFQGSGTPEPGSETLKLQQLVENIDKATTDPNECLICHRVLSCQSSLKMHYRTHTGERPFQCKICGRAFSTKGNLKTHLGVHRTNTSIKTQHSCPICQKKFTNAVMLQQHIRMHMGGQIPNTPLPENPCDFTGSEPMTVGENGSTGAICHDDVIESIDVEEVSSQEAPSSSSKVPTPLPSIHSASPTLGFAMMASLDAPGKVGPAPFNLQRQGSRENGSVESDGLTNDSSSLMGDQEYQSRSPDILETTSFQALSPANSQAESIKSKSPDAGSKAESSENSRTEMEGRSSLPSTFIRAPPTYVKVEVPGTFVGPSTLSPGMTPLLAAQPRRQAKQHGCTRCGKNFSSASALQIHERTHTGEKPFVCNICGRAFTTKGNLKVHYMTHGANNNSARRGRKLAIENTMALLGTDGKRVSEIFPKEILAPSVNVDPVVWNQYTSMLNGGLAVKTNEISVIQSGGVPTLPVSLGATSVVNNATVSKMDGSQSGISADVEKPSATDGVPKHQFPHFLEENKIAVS
Method: universal PBM
Molecule type: double-stranded DNA, one strand shown
Sample: in vitro
Concentration: 600 nM
Notes: 8-mer, flanks averaged, mean of replicates
Reading: higher = stronger binding
Sequence	E-score
GACTGCCC	-0.252
GCATCGCC	-0.221
ATTATTAG	0.407
CGGCTCAC	-0.195
CCAGCCGA	-0.326
ACAGGGAC	-0.219
AGAAAAAA	0.252
GACGCAGC	-0.311
ACGTTTAC	0.111
CGTGAACC	-0.207
CACAAAAC	0.0513
ATGCATCC	-0.0786
CAGCTCAG	-0.334
GTAGTGTA	0.00516
CCCTAAAC	-0.0882
CACAACTA	0.119
ACTGTCAC	0.121
GAGCTGAA	-0.0645
CGCGGCTC	-0.283
CCAACATC	-0.19
CCTTACAA	0.0718
TAAGAACA	0.205
TGCACCCA	-0.139
ATTATTTA	0.422
CGCGCTAC	-0.084

Block 5
Target: Interferon regulatory factor 7, full length, phosphomimetic (IRF7, Homo sapiens, UniProt Q92985, residues 1-503, S471D/S472D/S475D/S476D/S477D/S483D/S484D/S487D)
Method: protein-binding microarray
Molecule type: double-stranded DNA, one strand shown
Sample: in vitro
Concentration: 2200 nM top
Notes: 60-bp whole probe
Together with: salmon DNA 0.4 mg/ml
Baseline: random background probes
Reading: higher = stronger binding
Shared flanks, not repeated: GCCTAGCAC … GTCTTGATTCGCTTGACGCTGCTG
Target sequence (chain): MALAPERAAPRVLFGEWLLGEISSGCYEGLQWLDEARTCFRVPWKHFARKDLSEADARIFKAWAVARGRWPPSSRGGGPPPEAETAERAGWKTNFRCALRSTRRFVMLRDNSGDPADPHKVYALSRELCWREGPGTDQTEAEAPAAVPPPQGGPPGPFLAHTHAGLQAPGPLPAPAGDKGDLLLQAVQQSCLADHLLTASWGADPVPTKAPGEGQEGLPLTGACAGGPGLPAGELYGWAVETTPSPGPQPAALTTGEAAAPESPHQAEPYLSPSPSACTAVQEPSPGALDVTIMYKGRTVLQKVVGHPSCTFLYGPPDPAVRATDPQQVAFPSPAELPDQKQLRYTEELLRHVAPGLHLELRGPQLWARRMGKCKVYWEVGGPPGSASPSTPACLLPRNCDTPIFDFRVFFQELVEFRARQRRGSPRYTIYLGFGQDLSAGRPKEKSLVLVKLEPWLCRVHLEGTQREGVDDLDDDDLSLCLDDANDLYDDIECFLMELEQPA
Sequence	fitted relative affinity [z-score]
TACGATTTCGGGTTTCGAGACGTGCTA	5.55
CTAGGACTGGACTATCGGTTAGTGCTA	-0.116
GACGGTTTCGTCTTTCGGGACGTGCTA	7
TTAGGTATCGACACTGGGTGAGTGCTA	-0.109
GACGGTTCCGGTTTCGGGATGTGCTAG	6.48
TTAGGATTGGACTTTCGGTTAGTGCTA	5.18
TTAGGTCTCCTCCTGCTTTAGTGCTAG	0.696
GACGGTATCGACTATCCGGACGTGCTA	0.653
TTAGGTTTCGGGACTGGGTTGGTGCTA	3.28
TTAGGTATCGGTTTCGGATAGTGCTAG	4.33
GACGGAATGCTTATCCTGACGTGCTAG	0.415
TTTGATATCAGACTGGATTAGTGCTAG	0.141
GACGAAATGAGTCTCGAGACGTGCTAG	0.0786
TCAGGTAGCCTTATCCCTAAGTGCTAG	0.0789
GACGGTTTCGGACTCGGGACGTGCTAG	3.81
GACGGACTGCTTTTCGTGACGTGCTAG	0.724
GACGAAATGGGGACTGGAGACGTGCTA	0.00874
TCATTTTTTTTCATCATTGCGTGCTAG	1.69
TTAGGTTTCGACTTTCGGATAGTGCTA	8.02
TCATGCTTTCTTTTATGACTGTGCTAG	1.57
TCAGAACTCAACTGTCTGACTGTGCTA	0.158
TTAGCTATCGGGTATCGGTTAGTGCTA	0.516
TTACGTTTCCTTCTCCTTTAGTGCTAG	4.88
TCTTTTTGCTTTCTTTTATGGTGCTAG	3.74
GACGATATCGTGTATCGAGACGTGCTA	0.228

A few entries again (block 4):
Sequence	E-score
GCATCGCC	-0.221
ATTATTAG	0.407
CGGCTCAC	-0.195
CCAGCCGA	-0.326
ACAGGGAC	-0.219
AGAAAAAA	0.252
GACGCAGC	-0.311
ACGTTTAC	0.111
CGTGAACC	-0.207
CACAAAAC	0.0513
ATGCATCC	-0.0786
CAGCTCAG	-0.334
GTAGTGTA	0.00516
CCCTAAAC	-0.0882
